# Measured values gathered from unrelated publications.
# Each numbered part is a random draw from the data of one study; scales do not carry over between parts. Substitutions count along the parent as printed.

# Series 1 — technique: Spec-seq; molecule type: double-stranded DNA, one strand shown; sample: in vitro; tested at: not given; notes: whole probe, mean of replicates; reference: not given; reading: lower = stronger binding; constant ends, left off below: GAGTCGTCTCGTCAGCAC … CCGTAGAGCACTCAGGTC
# Target: POU domain, class 5, transcription factor 1, POU domain (Pou5f1, Mus musculus, UniProt P20263, residues 131-289)
# Chain of UniProt P20263 (131-289, looked up): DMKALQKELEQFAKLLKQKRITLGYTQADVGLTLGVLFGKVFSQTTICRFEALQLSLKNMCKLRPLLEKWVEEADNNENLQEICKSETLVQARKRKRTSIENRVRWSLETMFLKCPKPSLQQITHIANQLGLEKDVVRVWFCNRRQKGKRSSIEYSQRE
Strand,relative binding energy
ATGCTGAG,0.669 ln ratio
GTCATAAT,0.441 ln ratio
ACGATAAT,0.544 ln ratio
ATCATCAT,-0.155 ln ratio
GGGGTAAT,0.841 ln ratio
CGTATAAT,0.447 ln ratio
ATGCTATG,0.412 ln ratio
ATGCCTCA,0.68 ln ratio

# Series 2 — technique: DNA-protein interaction ELISA; molecule type: double-stranded DNA, one strand shown; sample: in vitro, bacterial lysate; tested at: not given; notes: whole dsDNA probe, crude lysate protein; reference: highest signal in screen; reading: higher = stronger binding
# Target: Probable WRKY transcription factor 33, N-terminal DNA-binding domain (WRKY33, Arabidopsis thaliana, UniProt Q8S8P5, residues 169-264)
# Target sequence (chain): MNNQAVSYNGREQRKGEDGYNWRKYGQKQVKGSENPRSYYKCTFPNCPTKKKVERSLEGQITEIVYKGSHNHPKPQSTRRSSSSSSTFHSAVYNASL
Strand,relative absorbance
AAAAAACGGTCGCGATCGTTAATGATAAAA,13.2 % of maximum
AAAAAAATCATCCTATTGTTGCTGTCAAAA,11.8 % of maximum
AAAAAATCAAAACAACGATGCCGTTAAAAA,22.4 % of maximum
AAAAAAATTCATGCTATTTAACCTTAAAAA,31.5 % of maximum
AAAAAAGTCGTCACGCACGTGAATACAAAA,37.1 % of maximum
AAAAAATTGGCACACATGATCTCGGGAAAA,20 % of maximum
AAAAAATGACCAGGCCTCGAGCAAAAA,19.8 % of maximum
AAAAAACGCATCATAGCTACGCCCCAAAAA,24.7 % of maximum

# Series 3 — technique: RNA Bind-n-Seq; molecule type: RNA; sample: in vitro; tested at: not given; reference: input RNA pool; reading: higher = stronger binding
# Target: RING finger protein unkempt homolog, zinc fingers 1-6, GST-SBP tag (UNK, Homo sapiens, UniProt Q9C0B0, residues 30-357)
# Notes: RNA with constant flanks, human and mouse sites, ends assumed
# Constant ends, left off below: GGGAGUUCUACAGUCCGACGAUC … CAACAGAGGAUUGAGCAUCA
# Residues (chain): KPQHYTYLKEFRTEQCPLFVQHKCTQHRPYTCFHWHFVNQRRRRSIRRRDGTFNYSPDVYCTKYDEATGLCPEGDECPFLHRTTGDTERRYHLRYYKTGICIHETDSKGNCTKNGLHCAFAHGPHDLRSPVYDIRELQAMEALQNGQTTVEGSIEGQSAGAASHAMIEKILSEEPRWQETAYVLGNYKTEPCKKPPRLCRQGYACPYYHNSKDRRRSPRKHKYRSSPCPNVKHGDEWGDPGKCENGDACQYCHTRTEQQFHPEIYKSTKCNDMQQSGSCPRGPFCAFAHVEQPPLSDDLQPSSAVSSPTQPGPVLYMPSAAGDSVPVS
Strand,bound/input enrichment [ratio]
CAUGUUAAAGAGCAUCACUUUGGAUCCUCUGGAAUGACAUUGCAUGAACGCUUUACUAAAUACCUAAAGAGAGGAAAUGAACAAGAAGCAGCUAAAAAUAAGAAAAGCCCAGAGAUACAC,0.276
AGUCUUGCAUCUUUACUAGAACUAUUGAAAGGUGUCUUCAGCACAUGUAAAGGGGACCUCUUAGAAGUUACAGAUGGCAAUGUGAAGACCCAGCCUGCAGUCCUAGAGAAUCUGGUCUUC,0.288
UAUUUACAACAGCUCACCGGAGCGAGAACAGUUCCUCGGGUCUUCAUAGGUAAAGACUGCAUAGGCGGAUGCAGUGAUCUAAUCUCCAUGCAACAGACUGGGGAGCUGAUGACUCGGCUG,0.216
GCCCAUGAUGCCGUGGCACAGGAAGGCCAAUGUCGGGUAGAUGACAAGGUGAAUUUCCAUUUUAUUCUGUUUAACAACGUGGAUGGCCACCUCUAUGAACUUGAUGGACGAAUGCCUUUU,0.104
AAAUCUCGAAACAAUGAAUCAGAAAAGUUCAGUUCUAGUUCACCAUUGACUUUACCAGCAGAUUUGAAGAACAUCUUGGAGAAACAGUUUUCUAAAUCUUCCAGAGCUGCACACCAGGAU,0.157
GACAGUGAAGGCCCACUGUGUGAAUUGCUUUUUUUCUUCCUGACUGCAAUCUUCCAGGCGAUGGCUGAAGAAGAGGAGGAAGUAGCCAAAGAGCAGAUAACUGAUGCUGACACCAAAGAU,0.0799
UUGCCUCCUCACUUUCCUGGGCAUUCCUCCGAGAUCUCCUGCCUCUCAACCUUUGCUAGUGCUAUUCUCUGUGCCUGGGACGAUACCUUUGACUCAUCUUCGACUGACCUAAUGGAGAGA,0.407
AUGGUGCAGAACGUGAGCUUCAAAUAUACGAAAGACGGGCCUUGCAUCUACAAUAAUCUAGAAUUUGGUAUUGAUCUUGACACACGAGUGGCUCUGGUAGGACCCAAUGGAGCAGGGAAG,1.3

# Mixed results
# Starting sequence: viral docking peptide; KKVKRRLFETREL; partner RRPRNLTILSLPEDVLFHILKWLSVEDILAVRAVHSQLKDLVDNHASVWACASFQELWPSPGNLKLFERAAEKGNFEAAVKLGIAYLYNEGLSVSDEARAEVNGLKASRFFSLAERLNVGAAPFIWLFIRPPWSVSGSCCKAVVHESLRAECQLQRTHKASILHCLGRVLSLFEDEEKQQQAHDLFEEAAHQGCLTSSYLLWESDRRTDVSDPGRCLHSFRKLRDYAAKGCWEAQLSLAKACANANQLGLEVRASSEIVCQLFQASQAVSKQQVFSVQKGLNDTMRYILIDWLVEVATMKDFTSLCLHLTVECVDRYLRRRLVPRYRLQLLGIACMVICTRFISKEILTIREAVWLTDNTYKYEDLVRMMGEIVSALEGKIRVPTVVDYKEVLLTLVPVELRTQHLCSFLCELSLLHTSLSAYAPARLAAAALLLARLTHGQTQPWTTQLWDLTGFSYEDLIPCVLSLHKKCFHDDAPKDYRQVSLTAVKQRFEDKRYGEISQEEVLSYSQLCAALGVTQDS
Substitution,target,assay,system,setting,scale,quantity,value
KKVKRRLFATREL [E9A],"CCNF, cyclin fold, Cln2 fusion (human)","yeast growth competition, sequencing",yeast,strong parent motif,"reference: not given, higher = stronger binding",normalised enrichment score,6.9

# Excerpt of the above (series 2):
Strand,relative absorbance
AAAAAAATTCATGCTATTTAACCTTAAAAA,31.5 % of maximum
AAAAAACGGTCGCGATCGTTAATGATAAAA,13.2 % of maximum
